Published values of several laboratories.
Numbered parts are unrelated; each lists some results of a single study.

Series 1
Target: Histone acetyltransferase KAT6A, winged helix 2, GST fusion (KAT6A, Homo sapiens, UniProt Q92794, residues 85-181)
Technique: protein binding microarray
Molecule type: double-stranded DNA, one strand shown
Sample: in vitro
Tested at: not given
Notes: 8-mer, flanks averaged, mean of 2 arrays, mostly near background
Relative to: not given
Reading: higher = stronger binding
Residues (chain): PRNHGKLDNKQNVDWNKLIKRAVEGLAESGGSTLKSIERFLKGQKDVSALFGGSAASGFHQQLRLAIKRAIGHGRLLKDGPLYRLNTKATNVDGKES
Sequence	E-score
CCAACAAG	0.00234
ATAGATAT	-0.151
CGCAGACA	0.141
CTCTCTGA	0.0968
AGGGTCAG	-0.0215
AGATTCCT	-0.0244
GCCGTAAC	0.0123
CATTCGCA	-0.00728
TTCTGCAA	0.244
CCAAGTAA	0.0244
GTTCGACA	0.196
GGGGGGAC	-0.00264

Series 2
Molecule: PhoQ, residues 284 288 289 292 302 303 AGCYAI
Technique: Sort-seq
Measured: YFP reporter
Sample: E. coli
Notes: PhoQ-PhoP variant library
Added: 10 µM Mg2+
Relative to: high Mg2+ state
Reading: higher = stronger signaling
target	fold induction
PhoP, residues 12 14 15 18 19 GMGLL (Escherichia coli, UniProt P23836)	3.78
PhoP, residues 12 14 15 18 19 QQAYL (Escherichia coli, UniProt P23836)	2.27
PhoP, residues 12 14 15 18 19 LFHKL (Escherichia coli, UniProt P23836)	6.73

Series 3
Target: Sal-like protein 4, full length isoform B (SALL4, Homo sapiens, UniProt Q9UJQ4-2, residues 1-616)
Technique: universal PBM
Molecule type: double-stranded DNA, one strand shown
Sample: in vitro
Tested at: not given
Notes: 8-mer, flanks averaged, mean of replicates
Reading: higher = stronger binding
Sequence	E-score
CGATGTAC	0.125
ATTCGGGG	0.00062
CGGGTCGA	-0.334
CAGCATAC	-0.0449
GCTGGCCC	-0.378
CTGAAATA	0.308
AGTCACTG	-0.184
AAATTACA	0.317
CGCCCATC	-0.221

Series 4
Target: RNA binding protein fox-1 homolog 2, RRM domain, GST-SBP tag (RBFOX2, Homo sapiens, UniProt O43251-10, residues 100-194)
Technique: RNA Bind-n-Seq
Molecule type: RNA
Sample: in vitro
Tested at: 365 nM
Notes: natural RNA segment, single round, ends assumed
Relative to: no-protein control
Reading: higher = stronger binding
Constant ends, left off below: GGGAGUUCUACAGUCCGACGAUC … UGGAAUUCUCGGGUGCCAA
Target sequence (chain): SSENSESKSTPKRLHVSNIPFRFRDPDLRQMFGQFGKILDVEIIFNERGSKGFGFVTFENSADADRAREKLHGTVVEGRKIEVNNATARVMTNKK
Sequence	RBNS enrichment (R)
UGGGUGGGCCUGACUGUUGCCCCCCAGGGUCCUAAAACUUGGAUGGACUUGUAUAGUGAGAGAGGAGGCCUGGACCGAGAUGUGAGUCCUGUUGAAGACUUCCUCUCUAC	0.748
GACAUCUUCAAGGGUAGAACUAAUCUGAAACCCCAUUCAGCCUAUUCCAGAAUGGGGAUAGGCUGAAACCCCCUUCCAGCCUCUGGAAGACACUGGCCUGCAUCAGUUAG	0.619
CAGAGUUGAGCCAGCCCUCGCUGCCUUGGGUGCUUGCUUACCACCAGUCAAGGUUGCUCUGAACUUUCCCAUAACCAUUAUCCCCCAAGACCACCAGGCUCUGAGUGACC	0.35
CUUUUGAUCUGCCAAGGAUUUCCUCUCAGAGCUGUUGCACAGACAGAGAUUGUACUUGGUAAGAUACCAAACAAGACAGAUAUGGAUCUAAAUUUCUAAUGUGUUCUAUG	0.388
UUAAUUCAGCCUGGCCUCGAAACACUGUCCUGAGCACCCGUCAACUCUGAGAGGAAGUGUGGAGAGUCUCCAUCCAACUCUGCUCCUACUGAGUAAAGUCCCCUUCCCUC	0.19
UACUUAAUUCCUGUGGGCAGGUUAUAUUUUAAGUUCAAAUGCAUUGCUUUAACCUUUGGUUACUUUUAUUCUGUUAAACAGAAUUGAAGAAAGAGUAUUAUACCAGAGUG	0.453
ACUGUUCACUUCCUUGUUGUAUUGCAGUAAAAGAUUUAAAACAACCAUUGCAUGUUUGCUUUUGAUGUAUCCCUUUGUGAAAUCAGCACUUCUGGGGCCAAUGAAGAAAC	7.65
UUUGUCUUCUCUUUUCUGCACUUAAUACCUGACAGUAUGACCGAUCUCUGCGCCUUUCUGGGGGCGGGCAAGCUGGCGGUAGAUUUGUGAUGUCACAGUGCAAACUGCAG	0.363

For quick reference, copied from above (series 3):
Sequence	E-score
AGTCACTG	-0.184
AAATTACA	0.317
